Experimental data pooled from the literature.
Numbers after ± are the reported error.
MAPK8: MAPK8, pT183, pY185 (Homo sapiens, UniProt P45983)
Sequence of UniProt P45983 (whole entry, looked up): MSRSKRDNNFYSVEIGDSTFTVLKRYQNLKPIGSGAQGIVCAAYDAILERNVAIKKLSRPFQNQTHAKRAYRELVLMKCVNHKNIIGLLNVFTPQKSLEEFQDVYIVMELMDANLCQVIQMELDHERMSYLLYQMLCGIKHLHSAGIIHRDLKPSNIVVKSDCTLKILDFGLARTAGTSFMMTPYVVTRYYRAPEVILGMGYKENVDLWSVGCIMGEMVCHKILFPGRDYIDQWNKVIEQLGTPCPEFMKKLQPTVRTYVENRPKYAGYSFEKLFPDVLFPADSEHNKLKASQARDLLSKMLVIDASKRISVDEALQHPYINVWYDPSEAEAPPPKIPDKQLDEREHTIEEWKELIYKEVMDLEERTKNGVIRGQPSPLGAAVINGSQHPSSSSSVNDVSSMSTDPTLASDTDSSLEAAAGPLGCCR
B1: VEGFA VEGF121 N-terminal KKK addition (Homo sapiens); chain KKKAPMAEGGGQNHHEVVKFMDVYQRSYCHPIETLVDIFQEYPDEIEYIFKPSCVPLMRCGGCCNDEGLECVPTEESNITMQIMRIKPHQGQHIGEMSFLQHNKCECRPKKDRARQEKCDKPRR
B2: CER1 18-267 (Homo sapiens, UniProt O95813); sequence looked up; chain TRHQDGRQNQSSLSPVLLPRNQRELPTGNHEEAEEKPDLFVAVPHLVATSPAGEGQRQREKMLSRFGRFWKKPEREMHPSRDSDSEPFPPGTQSLIQPIDGMKMEKSPLREEAKKFWHHFMFRKTPASQGVILPIKSHEVHWETCRTVPFSQTITHEGCEKVVVQNNLCFGKCGSVHFPGAAQHSHTSCSHCLPAKFTTMHLPLNCTELSSVIKVVMLVEECQCKVKTEHEDGHILHAGSQDSFIPGVSA
Sequence of UniProt P35968 (whole entry, looked up): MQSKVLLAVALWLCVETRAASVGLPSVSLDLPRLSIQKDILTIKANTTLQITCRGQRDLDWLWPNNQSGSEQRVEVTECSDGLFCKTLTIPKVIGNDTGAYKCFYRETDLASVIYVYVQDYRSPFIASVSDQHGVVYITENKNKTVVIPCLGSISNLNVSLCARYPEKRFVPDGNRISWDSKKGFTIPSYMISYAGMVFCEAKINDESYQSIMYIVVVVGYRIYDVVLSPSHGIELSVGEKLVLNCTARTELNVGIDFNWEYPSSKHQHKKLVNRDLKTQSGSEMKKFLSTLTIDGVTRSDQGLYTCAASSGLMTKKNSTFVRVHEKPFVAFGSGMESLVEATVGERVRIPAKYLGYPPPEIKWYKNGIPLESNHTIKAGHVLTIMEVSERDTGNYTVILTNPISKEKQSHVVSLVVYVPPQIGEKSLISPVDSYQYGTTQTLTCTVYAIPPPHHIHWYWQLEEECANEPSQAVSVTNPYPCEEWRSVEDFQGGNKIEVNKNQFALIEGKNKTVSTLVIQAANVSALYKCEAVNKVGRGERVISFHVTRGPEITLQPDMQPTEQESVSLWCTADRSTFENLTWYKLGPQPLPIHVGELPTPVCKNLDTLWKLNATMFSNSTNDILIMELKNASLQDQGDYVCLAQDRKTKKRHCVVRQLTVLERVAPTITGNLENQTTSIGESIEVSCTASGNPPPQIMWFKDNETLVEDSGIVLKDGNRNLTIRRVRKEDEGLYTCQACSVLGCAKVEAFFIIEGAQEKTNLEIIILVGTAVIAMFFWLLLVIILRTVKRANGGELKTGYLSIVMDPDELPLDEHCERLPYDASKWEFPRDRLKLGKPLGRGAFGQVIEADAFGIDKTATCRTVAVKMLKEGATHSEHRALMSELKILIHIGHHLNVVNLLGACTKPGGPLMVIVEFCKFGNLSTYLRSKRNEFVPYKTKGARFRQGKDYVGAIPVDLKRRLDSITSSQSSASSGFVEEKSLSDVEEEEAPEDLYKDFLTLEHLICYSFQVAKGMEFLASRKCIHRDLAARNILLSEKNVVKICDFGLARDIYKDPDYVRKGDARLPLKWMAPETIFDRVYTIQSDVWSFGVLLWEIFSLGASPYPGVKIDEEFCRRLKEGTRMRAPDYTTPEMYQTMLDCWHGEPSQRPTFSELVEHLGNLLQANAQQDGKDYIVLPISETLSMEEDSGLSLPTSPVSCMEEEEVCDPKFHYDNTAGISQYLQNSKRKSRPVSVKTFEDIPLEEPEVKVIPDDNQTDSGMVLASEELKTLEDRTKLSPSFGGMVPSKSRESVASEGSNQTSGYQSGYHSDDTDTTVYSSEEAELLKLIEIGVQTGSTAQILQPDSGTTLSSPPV
Sequence of UniProt P54764 (whole entry, looked up): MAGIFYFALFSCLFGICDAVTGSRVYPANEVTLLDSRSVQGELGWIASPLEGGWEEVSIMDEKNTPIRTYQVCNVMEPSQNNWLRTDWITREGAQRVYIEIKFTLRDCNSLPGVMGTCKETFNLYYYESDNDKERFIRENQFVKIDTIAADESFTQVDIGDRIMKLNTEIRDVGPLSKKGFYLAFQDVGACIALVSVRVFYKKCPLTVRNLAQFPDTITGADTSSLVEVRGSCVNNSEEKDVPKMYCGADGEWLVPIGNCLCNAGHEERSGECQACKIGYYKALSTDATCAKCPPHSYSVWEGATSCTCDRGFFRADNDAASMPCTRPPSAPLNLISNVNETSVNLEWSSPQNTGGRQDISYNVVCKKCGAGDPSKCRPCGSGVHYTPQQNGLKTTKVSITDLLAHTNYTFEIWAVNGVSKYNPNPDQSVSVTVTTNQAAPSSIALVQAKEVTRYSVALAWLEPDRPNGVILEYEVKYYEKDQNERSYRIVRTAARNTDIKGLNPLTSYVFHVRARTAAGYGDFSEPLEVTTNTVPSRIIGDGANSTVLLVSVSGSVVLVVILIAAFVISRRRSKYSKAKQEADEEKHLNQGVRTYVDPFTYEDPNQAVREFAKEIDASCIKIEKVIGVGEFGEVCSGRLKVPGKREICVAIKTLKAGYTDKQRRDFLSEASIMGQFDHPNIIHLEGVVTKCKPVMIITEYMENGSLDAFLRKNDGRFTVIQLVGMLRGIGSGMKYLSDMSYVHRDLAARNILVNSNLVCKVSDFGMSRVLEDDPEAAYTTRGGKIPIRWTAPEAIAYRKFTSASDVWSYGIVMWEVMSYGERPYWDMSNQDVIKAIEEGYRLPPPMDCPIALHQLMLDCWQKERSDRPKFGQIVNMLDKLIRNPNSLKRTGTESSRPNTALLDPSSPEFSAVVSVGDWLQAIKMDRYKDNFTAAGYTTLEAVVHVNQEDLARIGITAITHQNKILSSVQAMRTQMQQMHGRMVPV
Sequence of UniProt P09529 (whole entry, looked up): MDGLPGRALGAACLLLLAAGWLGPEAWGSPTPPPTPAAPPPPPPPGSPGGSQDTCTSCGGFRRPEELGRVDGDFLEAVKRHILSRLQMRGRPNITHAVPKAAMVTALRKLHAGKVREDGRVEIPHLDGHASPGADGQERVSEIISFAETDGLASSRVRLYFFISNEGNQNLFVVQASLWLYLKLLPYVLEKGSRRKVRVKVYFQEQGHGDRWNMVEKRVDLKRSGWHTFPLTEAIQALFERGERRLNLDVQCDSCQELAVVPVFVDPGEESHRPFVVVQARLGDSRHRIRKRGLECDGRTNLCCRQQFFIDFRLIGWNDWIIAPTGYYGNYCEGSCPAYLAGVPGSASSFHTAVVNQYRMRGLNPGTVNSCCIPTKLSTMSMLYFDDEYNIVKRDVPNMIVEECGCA
Sequence of UniProt Q9NYZ4 (whole entry, unmodified, looked up): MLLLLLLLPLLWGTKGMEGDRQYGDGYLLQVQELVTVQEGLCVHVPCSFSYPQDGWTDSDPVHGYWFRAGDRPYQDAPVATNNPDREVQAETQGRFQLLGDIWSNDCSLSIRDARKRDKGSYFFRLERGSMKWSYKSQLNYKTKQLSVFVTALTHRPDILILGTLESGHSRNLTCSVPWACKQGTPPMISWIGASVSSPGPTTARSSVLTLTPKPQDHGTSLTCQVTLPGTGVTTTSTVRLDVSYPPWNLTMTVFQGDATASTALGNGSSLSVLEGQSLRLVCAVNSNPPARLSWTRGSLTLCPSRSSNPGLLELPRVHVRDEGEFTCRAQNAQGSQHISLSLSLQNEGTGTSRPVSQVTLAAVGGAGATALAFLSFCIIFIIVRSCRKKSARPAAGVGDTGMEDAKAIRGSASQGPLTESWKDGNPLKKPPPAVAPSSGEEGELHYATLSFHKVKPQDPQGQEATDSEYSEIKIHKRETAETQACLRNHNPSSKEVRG

| Substance | partner | test | system | conditions | IC50 [µM] |
| --- | --- | --- | --- | --- | --- |
| B1 | KDR (Homo sapiens, UniProt P35968) | competition with ligand, radioligand binding | PAE/KDR | with: 125I-VEGF165 | 0.00065 |
| B2 (CER1 18-267) | INHBB mature (Homo sapiens, UniProt P09529) | SMAD3 luciferase reporter, inhibitor | Fc fusion, A-204 | with: Activin B 0.8 nM | 0.0341 |
| YAGEQRRRRLELQLQE (MYH14 D-site peptide (Homo sapiens)) | MAPK8 | kinase activity, inhibitor, competitive kinase inhibition assay | peptide | with: ATP 1 mM | 5.6 |
| GWSHW (THBS1 residues 437-441 (Homo sapiens)) | FN1 intact plasma (Homo sapiens) | competition with coated peptide, radioligand binding | peptide | – | > 300 |
| KYLPYWPVLSSL (KYL peptide 12-mer) | EPHA4 29-209 (Homo sapiens, UniProt P54764) | competition with ligand, fluorescence polarisation | peptide | with: FITC-KYL | 4.22 ± 0.5 |
| GGWSHW (THBS1 residues 436-441 (Homo sapiens)) | FN1 intact plasma (Homo sapiens) | competition with coated peptide, radioligand binding | peptide | – | 29 ± 11 |
| YAYPGPARPASLGLGP (CDX1 D-site peptide (Homo sapiens)) | MAPK8 | kinase activity, inhibitor, competitive kinase inhibition assay | peptide | with: ATP 1 mM | 2.7 |
| QDGGWS (THBS1 residues 434-439 (Homo sapiens)) | FN1 intact plasma (Homo sapiens) | competition with coated peptide, radioligand binding | peptide | – | > 300 |
| YANQLKFRKKKLKFCK (SETD1B D-site peptide (Homo sapiens)) | MAPK8 | kinase activity, inhibitor, competitive kinase inhibition assay | peptide | with: ATP 1 mM | 28 |
| KRFKQDGGWSHWSPWSS (THBS1 residues 430-446 (Homo sapiens)) | FN1 intact plasma (Homo sapiens) | competition with coated peptide, radioligand binding | peptide | – | 200 |
| DMBT1 mature, O-linked sialylated keratan sulfate (Homo sapiens, UniProt Q9UGM3) | SIGLEC8 17-363 (Homo sapiens, UniProt Q9NYZ4) | competition with Siglec-8 binding, inhibitor, binding inhibition assay | – | apparent | < 0.0001 |
| YAERPSRDHLYLPLEP (NFATC3 D-site peptide (Homo sapiens)) | MAPK8 | kinase activity, inhibitor, competitive kinase inhibition assay | peptide | with: ATP 1 mM | 0.89 |
| TFEB fragment E77A/N78V | Ppp3ca/Ppp3r1 calcineurin A and B (Rattus norvegicus) | calcineurin dephosphorylation, inhibitor, colorimetric phosphatase assay | – | – | 190 |

For quick reference, copied from above:
| Substance | partner | test | system | conditions | IC50 [µM] |
| --- | --- | --- | --- | --- | --- |
| QDGGWS (THBS1 residues 434-439 (Homo sapiens)) | FN1 intact plasma (Homo sapiens) | competition with coated peptide, radioligand binding | peptide | – | > 300 |
